# Measurements pooled from the literature.
# Each numbered part is a random draw from the data of one study; scales do not carry over between parts.

# Set 1
# Target: Protein C-ets-1 (ETS1, Homo sapiens, UniProt P14921, residues 1-441, full length assumed)
# Sequence of UniProt P14921 (whole entry, looked up): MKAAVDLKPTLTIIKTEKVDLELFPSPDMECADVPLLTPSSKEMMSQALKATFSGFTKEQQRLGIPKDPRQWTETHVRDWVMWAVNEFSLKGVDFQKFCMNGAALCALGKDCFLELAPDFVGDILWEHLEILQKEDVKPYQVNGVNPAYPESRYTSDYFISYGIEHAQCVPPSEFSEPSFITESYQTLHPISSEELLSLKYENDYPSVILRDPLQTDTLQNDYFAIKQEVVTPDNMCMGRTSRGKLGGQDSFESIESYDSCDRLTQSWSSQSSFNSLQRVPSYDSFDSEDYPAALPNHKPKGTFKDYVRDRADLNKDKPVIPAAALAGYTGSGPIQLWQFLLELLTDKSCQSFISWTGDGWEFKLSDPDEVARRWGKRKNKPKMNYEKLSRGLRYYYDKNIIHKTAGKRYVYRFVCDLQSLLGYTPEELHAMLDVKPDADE
# Technique: protein-binding microarray
# Molecule type: double-stranded DNA, one strand shown
# Matrix: in vitro
# Concentration: not given
# Setting: k-mer, scored over probes, only values ≥0.25
# Reading: higher = stronger binding
Oligonucleotide,E-score
AGGATGGA,0.332
CAACCGGA,0.431
ACCTCCCC,0.268
TACTTCCA,0.346
CTGGCGGA,0.333
GGATGGCA,0.256
GAAGCATC,0.321
CTTCCCAC,0.304

# Set 2
# Target: Prothrombin, mature alpha-thrombin (F2, Homo sapiens, UniProt P00734)
# Technique: aptamer microarray, sandwich
# Molecule type: DNA with 2'F-ANA
# Matrix: in vitro
# Concentration: 200 nM
# Setting: whole 15-mer aptamer, many near background
# With: Cy3 exosite-II aptamer, 400 nM
# Reading: higher = stronger binding
# Oligonucleotide: GGTTGGTGTGGTTGG
Modification,mean fluorescence intensity [a.u.]
2'F-ANA at 1 5 6 8 14 15,47.7
2'F-ANA at 1 4 6 8 11 12,228
2'F-ANA at 3 6 7 10 11 12 13 15,440
2'F-ANA at 3 4 6 7 13 14 15,318
2'F-ANA at 1 6 9 10 11 13,63.6
2'F-ANA at 1 2 4 5 6 8 9 10 11 12 13,58.9
2'F-ANA at 3 4 13 15,584
2'F-ANA at 5 6 7 8 10 13 14 15,47.6

# Set 3
# Target: UBE2W UBC core domain (UniProt Q96B02)
# Technique: yeast two-hybrid
# Matrix: yeast
# Setting: mostly zero background
# Relative to: not given
# Reading: higher = stronger interaction
# B1: DTX4 RING domain (UniProt Q9Y2E6); chain QKVRHPPDEDCTICMERLTAPSGYKGPQPTVKPDLVGKLSRCGHVYHIYCLVAMYNNGNKDGSLQCPTCKTIYGVKTGTQ
# B2: RC3H1 RING domain (UniProt Q5TC82); chain QAPQWTDFLSCPICTQTFDETIRKPISLGCGHTVCKMCLNKLHRKACPFDQTTINTDIELL
# B3: TRIM24 RING domain (UniProt O15164); chain EAARLNLLDTCAVCHQNIQSRAPKLLPCLHSFCQRCLPAPQRYLMLPAPMLGSAETPPPVPAPGSPVSGSSPFATQVGVIRCPVCSQECAERHII
# B4: TRIM13 RING domain (UniProt O60858); chain MELLEEDLTCPICCSLFDDPRVLPCSHNFCKKCLEGILEGSVRNSLWRPAPFKCPTCRKETSATGINS
# B5: TRIM4 RING domain (UniProt Q9C037); chain EAEDIQEELTCPICLDYFQDPVSIECGHNFCRGCLHRNWAPGGGPFPCPECRHPSAPAALRP
# B6: TRIML1 RING domain (UniProt Q8N9V2); chain LMENLREELTCFICLDYFSSPVTTECGHSFCLVCLLRSWEEHNTPLSCPECWRTLEGPHFQS
# Construct (chain): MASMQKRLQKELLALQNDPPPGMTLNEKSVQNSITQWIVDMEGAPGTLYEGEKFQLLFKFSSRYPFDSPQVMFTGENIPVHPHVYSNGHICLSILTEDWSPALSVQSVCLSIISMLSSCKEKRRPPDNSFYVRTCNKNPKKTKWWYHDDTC
Molecule,lacZ reporter activity
B1 (DTX4 RING domain),0
B2 (RC3H1 RING domain),0
B3 (TRIM24 RING domain),0
GAAPGPEAAECLVCSELALLVLFSPCQHRTVCEECARRMKKCIRCQVVVSKKLRPD (MIB2 RING domain (UniProt Q96AX9)),0
B4 (TRIM13 RING domain),0
VEPSEENSKDCVVCQNGTVNWVLLPCRHTCLCDGCVKYFQQCPMCRQFVQESFALC (CGRRF1 RING domain (UniProt Q99675)),0
B5 (TRIM4 RING domain),0
MPIRALCTICSDFFDHSRDVAAIHCGHTFHLQCLIQWFETAPSRTCPQCRIQVGKRTIIN (TRAIP RING domain (UniProt Q9BWF2)),2630
B6 (TRIML1 RING domain),0

# Further values, each from its own experiment
Molecule,target,read-out,molecule type,concentration,endpoint,result
QTEPKTSVV,"HLA class I histocompatibility antigen, A alpha chain, allele A*80:01 (Homo sapiens, UniProt P04439)",peptide-MHC binding,peptide,concentration not given,binding,inactive

# For quick reference, copied from above (set 2):
Modification,mean fluorescence intensity [a.u.]
2'F-ANA at 3 6 7 10 11 12 13 15,440
2'F-ANA at 3 4 6 7 13 14 15,318
2'F-ANA at 5 6 7 8 10 13 14 15,47.6
